# Results of several laboratories.
# Protocols differ between the studies behind these lines. ± gives the spread as reported.
Structure (SMILES),target or system,assay,test system,conditions,how to read,measurement,value
N=C(N)NCCC[C@H](NC(=O)[C@H](CCCNC(=N)N)NC(=O)[C@H](CCCNC(=N)N)NC(=O)[C@H](CCC(N)=O)NC(=O)[C@H](CCCNC(=N)N)NC(=O)[C@H](CCCNC(=N)N)NC(=O)[C@H](CCCCN)NC(=O)[C@H](CCCCN)NC(=O)[C@H](CCCNC(=N)N)NC(=O)CNC(=O)[C@H](Cc1ccc(O)cc1)NC(=O)[C@@H](N)CS)C(=O)O,SV-HUC-1,MTT,,concentration not given,,viability,no effect
COC(=O)C1=CO[C@@H](O)[C@@H]2C(Cn3cc(C4(O)CCCC4)nn3)=CC[C@H]12,SK-N-SH,MTT,,"0.15 µM, 24 h, together with: H2O2 250 µM",,viability,78.3 ± 1.8%
COc1ccc(Nc2c(NC3CCN(Cc4ccccc4)CC3)c(=O)c2=O)cc1,SH-SY5Y,MTT,,"6.25 µM, 24 h",,viability,103.2 ± 0.48%
COCCN1COc2c(cc3c4c(c(=O)oc3c2C)CCC4)C1,SH-SY5Y,,,"50 µM, 24 h",,viability,90.2 ± 0.39%
O=C1CC(c2ccccc2)Oc2ccccc21 (stereo not drawn),Vero E6-GFP,,,"highest tested, 72 h, together with: CP-100356 2 µM",relative to: untreated,viability,100%
O=c1c(Nc2ccccc2)c(NC2CCN(Cc3ccccc3)CC2)c1=O,SH-SY5Y,MTT,,"12.5 µM, 24 h",,viability,117.1 ± 0.46%
CC[C@H](C)C(=O)N1CCC(NC(=O)Nc2ccc(OC(F)(F)F)c(F)c2)CC1,,,"human, plasma","oral, 16 mg, single dose, healthy volunteers",,Vd/F,146 L
CSCC[C@H](NC(=O)[C@H](CC(C)C)NC(=O)[C@H](Cc1c[nH]cn1)NC(=O)CNC(=O)[C@@H](NC(=O)[C@H](C)NC(=O)[C@H](Cc1c[nH]c2ccccc12)NC(=O)[C@H](CCC(N)=O)NC(=O)CCCCCNC(=O)CNC(=O)CNC(=O)CNC(=O)CSC(C)=O)C(C)C)C(N)=O [technetium-99m labelled],,,"nude mouse, PC-3 xenograft, muscle","30 min, together with: excess unlabelled conjugate",,tissue uptake,0.3 ± 0.03 %ID/g
COC(=O)C1=CO[C@@H](OC(C)=O)[C@@H]2C(Cn3cc(COCc4ccccc4)nn3)=CC[C@H]12,SK-N-SH,MTT,,"0.075 to 0.6 µM, 24 h, together with: H2O2",,viability,> 78%
COc1cc(C(=O)NCCOCCOCCOCCNC(=O)c2ccc([18F])nc2)ccc1NC(=O)C1NC(CC(C)(C)C)C(C#N)(c2ccc(Cl)cc2F)C1c1cccc(Cl)c1F (stereo not drawn),HepG2 tumour model,,"host not given, muscle","30 min, tumour-bearing",,tracer uptake,2.43 %ID/g
CN[C@](C)(C[18F])C(=O)O,A549 tumour model,,"host not given, kidney","15 min, tumour-bearing",,tracer uptake,18 %ID/g
N=C(N)NCCC[C@@H]1NC(=O)[C@H](CCCCNC(=O)CC[C@H](NC(=O)CCOCCOCCOCCOCCNC(=O)CN2CCN(CC(=O)O)CCN(CC(=O)O)CCN(CC(=O)O)CC2)C(=O)NCCCC[C@@H]2NC(=O)[C@@H](Cc3ccccc3)NC(=O)[C@H](CC(=O)O)NC(=O)CNC(=O)[C@H](CCCNC(=N)N)NC2=O)NC(=O)[C@@H](Cc2ccccc2)NC(=O)[C@H](CC(=O)O)NC(=O)CNC1=O [indium-111 labelled],,,"athymic nude mice, female, U-87 MG glioma xenograft, U-87 MG tumour","intravenous, 3 µCi, 72 h",,tissue uptake,1.55 ± 0.21 %ID/g
Nc1ccc(Nc2c(NC3CCN(Cc4ccccc4)CC3)c(=O)c2=O)cc1,SH-SY5Y,MTT,,"12.5 µM, 24 h",,viability,103 ± 2.34%
O=c1oc2c(CNCCc3cccc(F)c3)c(O)ccc2c2c1CCC2,SH-SY5Y,,,"100 µM, 24 h",,viability,95.3 ± 0.32%
CC[C@H](C)[C@H](NC(=O)[C@H](Cc1ccccc1)NC(=O)[C@H](CO)NC(=O)CN)C(=O)N[C@@H](Cc1c[nH]cn1)C(=O)N[C@@H](CO)C(=O)N[C@H](C(=O)N1CCC[C@H]1C(=O)N[C@@H](CCCNC(=N)N)C(=O)N[C@@H](Cc1c[nH]cn1)C(=O)O)C(C)C,bEnd.3,CCK-8,,100 µg/mL,,viability,no effect
COC(=O)C1=CO[C@@H](O)[C@@H]2C(Cn3cc(C(O)(c4ccccc4)c4ccccc4)nn3)=CC[C@H]12,SK-N-SH,MTT,,"0.075 to 0.6 µM, 24 h, together with: H2O2",,viability,> 78%
O=C1CCCC2=C1C(c1c[nH]c3ccccc13)n1c(sc(=Cc3c[nH]c4ccccc34)c1=O)=N2 (stereo not drawn),SH-SY5Y,"cell growth or viability, MTT",,20 µM,,viability,96%
O=c1c(NCc2ccc(Br)cc2)c(NC2CCN(Cc3ccccc3)CC2)c1=O,SH-SY5Y,MTT,,"12.5 µM, 24 h",,viability,84.74 ± 0.63%
COC(=O)C1=CO[C@@H](OC(C)=O)[C@@H]2C(Cn3cc(CON4C(=O)c5ccccc5C4=O)nn3)=CC[C@H]12,SK-N-SH,MTT,,"0.075 to 0.6 µM, 24 h, together with: H2O2",,viability,> 78%
COc1ccc([C@@H]2N=NC(NCCc3c[nH]c4ccc(C)cc34)=NC2=O)cc1,SH-SY5Y,,,"50 µM, 24 h",,viability,98.6 ± 0.55%
N=C(N)NCCC[C@@H]1NC(=O)[C@H](CCCCNC(=O)CCOCCOCCOCCOCCNC(=O)CN2CCN(CC(=O)O)CCN(CC(=O)O)CCN(CC(=O)O)CC2)NC(=O)[C@@H](Cc2ccccc2)NC(=O)[C@H](CC(=O)O)NC(=O)CNC1=O [indium-111 labelled],,,"female athymic nude mice, heart","intravenous, 3 µCi, 1 h, U-87 MG glioma xenograft",,tissue uptake,0.4 ± 0.03 %ID/g
COc1ccc(CCNc2c(NC3CCN(Cc4ccccc4)CC3)c(=O)c2=O)cc1OC,SH-SY5Y,MTT,,"12.5 µM, 24 h",,viability,98.3 ± 1.58%
CC(C)C[C@H](NC(=O)[C@H](CCCCN)NC(=O)[C@H](CCC(N)=O)NC(=O)[C@@H](N)Cc1c[nH]cn1)C(=O)N[C@H](C(=O)NCCCC[C@@H]1NC(=O)[C@H](CC(=O)N[C@@H](Cc2ccccc2)C(=O)N[C@@H](Cc2ccccc2)C(=O)N[C@@H](C)C(=O)N[C@@H](CCC(=O)O)C(=O)N[C@@H](CC(=O)O)C(N)=O)NC1=O)C(C)C,SH-SY5Y,,,"10 µM, 24 h",relative to: PBS control,viability,~93%
COC(=O)C1=CO[C@@H](OC(C)=O)[C@@H]2C(Cn3cc(COCc4ccc(OC)c(OC)c4)nn3)=CC[C@H]12,SK-N-SH,MTT,,"0.075 to 0.6 µM, 24 h, together with: H2O2",,viability,> 78%

# Excerpt of the above:
Structure (SMILES),target or system,assay,test system,conditions,how to read,measurement,value
CC(C)C[C@H](NC(=O)[C@H](CCCCN)NC(=O)[C@H](CCC(N)=O)NC(=O)[C@@H](N)Cc1c[nH]cn1)C(=O)N[C@H](C(=O)NCCCC[C@@H]1NC(=O)[C@H](CC(=O)N[C@@H](Cc2ccccc2)C(=O)N[C@@H](Cc2ccccc2)C(=O)N[C@@H](C)C(=O)N[C@@H](CCC(=O)O)C(=O)N[C@@H](CC(=O)O)C(N)=O)NC1=O)C(C)C,SH-SY5Y,,,"10 µM, 24 h",relative to: PBS control,viability,~93%
CSCC[C@H](NC(=O)[C@H](CC(C)C)NC(=O)[C@H](Cc1c[nH]cn1)NC(=O)CNC(=O)[C@@H](NC(=O)[C@H](C)NC(=O)[C@H](Cc1c[nH]c2ccccc12)NC(=O)[C@H](CCC(N)=O)NC(=O)CCCCCNC(=O)CNC(=O)CNC(=O)CNC(=O)CSC(C)=O)C(C)C)C(N)=O [technetium-99m labelled],,,"nude mouse, PC-3 xenograft, muscle","30 min, together with: excess unlabelled conjugate",,tissue uptake,0.3 ± 0.03 %ID/g
COc1ccc(Nc2c(NC3CCN(Cc4ccccc4)CC3)c(=O)c2=O)cc1,SH-SY5Y,MTT,,"6.25 µM, 24 h",,viability,103.2 ± 0.48%
COc1cc(C(=O)NCCOCCOCCOCCNC(=O)c2ccc([18F])nc2)ccc1NC(=O)C1NC(CC(C)(C)C)C(C#N)(c2ccc(Cl)cc2F)C1c1cccc(Cl)c1F (stereo not drawn),HepG2 tumour model,,"host not given, muscle","30 min, tumour-bearing",,tracer uptake,2.43 %ID/g
